Measured values pooled from the literature.
Numbered parts are unrelated; each lists some results of a single study.
UniProt P16234, sequence (whole entry, looked up): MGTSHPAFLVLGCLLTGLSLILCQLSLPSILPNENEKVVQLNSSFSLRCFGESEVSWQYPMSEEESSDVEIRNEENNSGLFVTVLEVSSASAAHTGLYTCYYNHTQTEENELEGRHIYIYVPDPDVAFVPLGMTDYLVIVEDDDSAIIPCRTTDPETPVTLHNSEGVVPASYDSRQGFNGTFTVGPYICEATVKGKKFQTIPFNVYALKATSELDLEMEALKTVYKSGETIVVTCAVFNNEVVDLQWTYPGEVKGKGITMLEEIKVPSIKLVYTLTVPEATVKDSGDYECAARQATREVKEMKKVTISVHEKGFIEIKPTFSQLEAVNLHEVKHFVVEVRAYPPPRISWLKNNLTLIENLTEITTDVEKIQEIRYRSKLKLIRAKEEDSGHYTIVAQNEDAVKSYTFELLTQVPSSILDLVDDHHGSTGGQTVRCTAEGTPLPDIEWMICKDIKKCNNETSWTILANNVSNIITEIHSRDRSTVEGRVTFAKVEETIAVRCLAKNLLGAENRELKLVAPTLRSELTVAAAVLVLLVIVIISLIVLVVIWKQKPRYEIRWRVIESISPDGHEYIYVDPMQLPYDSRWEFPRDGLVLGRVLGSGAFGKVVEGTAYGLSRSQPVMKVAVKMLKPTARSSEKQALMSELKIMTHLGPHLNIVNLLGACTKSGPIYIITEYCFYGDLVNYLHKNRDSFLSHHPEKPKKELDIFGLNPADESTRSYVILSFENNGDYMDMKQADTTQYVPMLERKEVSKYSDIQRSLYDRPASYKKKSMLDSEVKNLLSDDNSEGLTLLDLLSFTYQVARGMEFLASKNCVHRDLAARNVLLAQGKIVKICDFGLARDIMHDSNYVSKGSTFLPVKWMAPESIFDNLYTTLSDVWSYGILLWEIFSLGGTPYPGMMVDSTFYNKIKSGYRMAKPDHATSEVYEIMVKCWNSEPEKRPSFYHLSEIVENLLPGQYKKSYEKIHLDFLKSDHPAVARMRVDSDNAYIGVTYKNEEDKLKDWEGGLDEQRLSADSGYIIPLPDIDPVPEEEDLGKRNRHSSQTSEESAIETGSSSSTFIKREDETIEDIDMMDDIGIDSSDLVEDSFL
UniProt Q13873, sequence (whole entry, looked up): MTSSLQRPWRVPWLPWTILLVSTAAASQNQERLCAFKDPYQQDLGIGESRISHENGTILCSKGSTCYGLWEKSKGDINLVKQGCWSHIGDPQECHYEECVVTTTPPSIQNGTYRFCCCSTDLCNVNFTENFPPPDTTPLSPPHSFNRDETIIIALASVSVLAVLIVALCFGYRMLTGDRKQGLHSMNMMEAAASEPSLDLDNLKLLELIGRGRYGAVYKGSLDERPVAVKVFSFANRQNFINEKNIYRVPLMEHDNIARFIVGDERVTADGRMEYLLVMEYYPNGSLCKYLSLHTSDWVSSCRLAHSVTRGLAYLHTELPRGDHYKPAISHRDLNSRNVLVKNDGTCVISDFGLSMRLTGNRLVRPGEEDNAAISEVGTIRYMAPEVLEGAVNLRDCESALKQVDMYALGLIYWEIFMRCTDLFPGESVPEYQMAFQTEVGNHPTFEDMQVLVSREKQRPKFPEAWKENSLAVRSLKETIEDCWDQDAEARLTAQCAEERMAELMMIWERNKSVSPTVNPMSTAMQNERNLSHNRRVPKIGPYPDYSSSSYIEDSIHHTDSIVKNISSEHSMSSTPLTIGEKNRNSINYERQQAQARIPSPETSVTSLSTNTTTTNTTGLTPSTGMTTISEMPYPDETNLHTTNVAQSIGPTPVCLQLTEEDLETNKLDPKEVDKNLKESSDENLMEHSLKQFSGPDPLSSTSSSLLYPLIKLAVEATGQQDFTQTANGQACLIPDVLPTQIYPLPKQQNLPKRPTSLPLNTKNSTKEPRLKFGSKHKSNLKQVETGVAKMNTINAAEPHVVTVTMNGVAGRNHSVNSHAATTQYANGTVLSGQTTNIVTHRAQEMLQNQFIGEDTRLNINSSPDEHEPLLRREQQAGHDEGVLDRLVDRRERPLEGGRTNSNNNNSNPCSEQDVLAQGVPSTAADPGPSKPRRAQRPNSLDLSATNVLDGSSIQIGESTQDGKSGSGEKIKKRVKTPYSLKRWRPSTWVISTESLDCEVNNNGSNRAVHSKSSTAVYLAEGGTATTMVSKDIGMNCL
UniProt Q15759, sequence (whole entry, looked up): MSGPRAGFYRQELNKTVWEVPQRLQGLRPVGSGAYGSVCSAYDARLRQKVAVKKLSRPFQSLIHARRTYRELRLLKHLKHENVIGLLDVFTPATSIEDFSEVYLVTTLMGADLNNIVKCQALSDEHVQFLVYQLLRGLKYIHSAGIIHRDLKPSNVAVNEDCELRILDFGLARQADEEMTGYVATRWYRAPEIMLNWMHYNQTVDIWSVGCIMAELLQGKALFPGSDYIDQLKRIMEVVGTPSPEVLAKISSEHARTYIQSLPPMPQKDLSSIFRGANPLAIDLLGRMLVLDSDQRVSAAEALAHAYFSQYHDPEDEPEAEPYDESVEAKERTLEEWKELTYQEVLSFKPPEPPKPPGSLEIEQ
UniProt P31751, sequence (whole entry, looked up): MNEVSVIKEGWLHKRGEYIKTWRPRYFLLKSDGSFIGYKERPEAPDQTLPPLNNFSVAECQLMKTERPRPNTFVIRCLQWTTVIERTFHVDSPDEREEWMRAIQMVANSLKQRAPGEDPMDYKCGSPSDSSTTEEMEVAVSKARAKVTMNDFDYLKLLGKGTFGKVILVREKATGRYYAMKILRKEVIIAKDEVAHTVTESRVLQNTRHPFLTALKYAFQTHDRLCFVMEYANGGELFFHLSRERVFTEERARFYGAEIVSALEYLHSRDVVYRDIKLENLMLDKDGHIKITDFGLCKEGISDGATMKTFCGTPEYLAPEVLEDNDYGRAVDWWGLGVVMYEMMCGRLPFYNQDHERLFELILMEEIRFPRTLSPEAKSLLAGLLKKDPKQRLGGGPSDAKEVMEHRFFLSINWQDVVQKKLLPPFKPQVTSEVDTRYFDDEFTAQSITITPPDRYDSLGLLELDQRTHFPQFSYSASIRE
UniProt Q9Y572, sequence (whole entry, looked up): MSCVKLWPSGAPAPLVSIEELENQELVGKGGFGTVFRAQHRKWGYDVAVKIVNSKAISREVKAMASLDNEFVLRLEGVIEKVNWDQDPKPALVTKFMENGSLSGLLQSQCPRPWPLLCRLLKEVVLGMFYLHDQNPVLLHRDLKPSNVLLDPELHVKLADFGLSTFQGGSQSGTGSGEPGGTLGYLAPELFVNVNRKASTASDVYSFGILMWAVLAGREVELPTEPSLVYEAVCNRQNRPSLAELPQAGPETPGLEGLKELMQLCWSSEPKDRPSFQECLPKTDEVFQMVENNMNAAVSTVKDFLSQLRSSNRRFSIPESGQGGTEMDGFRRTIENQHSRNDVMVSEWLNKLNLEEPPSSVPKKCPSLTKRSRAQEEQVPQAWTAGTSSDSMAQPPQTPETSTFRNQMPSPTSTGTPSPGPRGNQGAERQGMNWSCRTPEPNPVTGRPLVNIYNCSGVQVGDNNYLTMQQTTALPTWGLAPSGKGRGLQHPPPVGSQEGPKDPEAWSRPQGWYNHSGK

Set 1
Target: 5-hydroxytryptamine receptor 5A (HTR5A, Homo sapiens, UniProt P47898)
UniProt P47898, sequence (whole entry, looked up): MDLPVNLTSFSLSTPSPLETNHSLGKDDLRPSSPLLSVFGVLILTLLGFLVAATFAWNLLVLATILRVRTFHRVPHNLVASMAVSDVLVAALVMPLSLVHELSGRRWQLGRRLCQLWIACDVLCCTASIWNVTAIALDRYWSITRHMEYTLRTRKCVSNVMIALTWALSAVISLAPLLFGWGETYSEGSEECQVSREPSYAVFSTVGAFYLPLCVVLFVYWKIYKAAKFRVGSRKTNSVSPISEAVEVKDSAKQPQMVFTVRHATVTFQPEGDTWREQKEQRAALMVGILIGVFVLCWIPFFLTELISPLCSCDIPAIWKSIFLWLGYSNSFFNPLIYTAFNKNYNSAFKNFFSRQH
Observed: cell-free assay
Concentration: 10 µM
Endpoint: inhibition
Nc1nc(NCc2ccccc2)nc(-c2cccc(CO)c2)n1: 0.66%
C[C@@H](NC(=O)Nc1cc2[nH]ncc2c(CO)n1)c1ccccc1: 1.39%
COc1cccc(NC(=O)c2nc3scc(CN(C)Cc4ccccc4)c3c(=O)[nH]2)c1: 2.97%
CN1CCN(c2ccnc(NCCc3ccccc3)n2)CC1: 59.8%
Cc1cc(-n2nc(Cc3cc(F)cc(C(F)(F)F)c3)nc2C)ccc1C(N)=O: 7.99%
COc1cc(C(=O)O)ncc1C#Cc1ccccc1NS(=O)(=O)c1cccc2c(N(C)C)ccnc12: 12.2%
COCCOc1nc(-c2ccc(Cl)nc2)nc2c1CN(C(=O)c1ncn3ccccc13)CC2: -7.27%
CC(C)(C)OC(=O)N1CCCC1CNC1CCC(c2cc(F)ccc2F)(S(=O)(=O)c2ccc(Cl)cc2)CC1 (centres unmarked): 35%
NC(=O)c1ccc2nc(-c3ccc(C4(N)CCC4)cc3)c(-c3ccccc3)n2n1: 9.78%
Cc1nc(C2CCN(C(=O)c3ccc(OC(F)(F)F)cc3N)CC2)c2ncc(N3CCN(C)CC3)cc2n1: -3.74%
O=C(NNS(=O)(=O)c1ccccc1)c1cc(-c2ccnnc2)ccc1F: -0.06%
COc1cc(-c2cn(C3CCc4ccccc4N(CC(F)(F)F)C3=O)nn2)ccc1-n1ccc(C)n1 (centres unmarked): 9.69%
Cc1cc2c(-c3ccco3)cnc(N[C@H]3CCN(C)C[C@@H]3C(=O)NC3CCCCC3)c2[nH]c1=O: 10.1%
CN1CCN(C(=O)C(C)(C)c2ccc(C(=O)Nc3cn4cc(-c5cc(C(C)(C)C)cc(C(C)(C)C)c5)ccc4n3)cc2)CC1: 83.2%

Set 2
SMILES: O=C(Nc1cnn(-c2csc(C(=O)NC3COC3)c2)c1)Nc1ccccc1Cl
Observed: enzyme activity
Concentration: 5 µM
Endpoint: remaining activity
LIM domain kinase 1 (LIMK1, Homo sapiens, UniProt P53667); baseline: untreated control: 96%
Tyrosine-protein kinase Tec (TEC, Homo sapiens, UniProt P42680); baseline: untreated control: 95%
Activin receptor type-1B (ACVR1B, Homo sapiens, UniProt P36896); baseline: untreated control: 112%
Receptor-interacting serine/threonine-protein kinase 3 (RIPK3, Homo sapiens, UniProt Q9Y572); baseline: untreated control: 98.1%
Serine/threonine-protein kinase 26 (STK26, Homo sapiens, UniProt Q9P289); baseline: untreated control: 94.1%
Ephrin type-B receptor 2 (EPHB2, Homo sapiens, UniProt P29323); baseline: untreated control: 99.3%
RAC-beta serine/threonine-protein kinase (AKT2, Homo sapiens, UniProt P31751); baseline: untreated control: 89.5%
Mitogen-activated protein kinase kinase kinase 3 (MAP3K3, Homo sapiens, UniProt Q99759); baseline: untreated control: 106%
Serine/threonine-protein kinase tousled-like 2 (TLK2, Homo sapiens, UniProt Q86UE8); baseline: untreated control: 98.7%
Serine/threonine-protein kinase SIK2 (SIK2, Homo sapiens, UniProt Q9H0K1); baseline: untreated control: 96.8%
Serine/threonine-protein kinase NIM1 (NIM1K, Homo sapiens, UniProt Q8IY84); baseline: untreated control: 101%
Platelet-derived growth factor receptor alpha (PDGFRA, Homo sapiens, UniProt P16234); baseline: untreated control: 91.7%
Mitogen-activated protein kinase 11 (MAPK11, Homo sapiens, UniProt Q15759); baseline: untreated control: 98%
Serine/threonine-protein kinase A-Raf (ARAF, Homo sapiens, UniProt P10398); inhibitor: 95.1%
Serine/threonine-protein kinase pim-2 (PIM2, Homo sapiens, UniProt Q9P1W9); baseline: untreated control: 96%
Bone morphogenetic protein receptor type-2 (BMPR2, Homo sapiens, UniProt Q13873); baseline: untreated control: 99.6%
Mitogen-activated protein kinase kinase kinase kinase 3 (MAP4K3, Homo sapiens, UniProt Q8IVH8); baseline: untreated control: 96.2%
Protein kinase C beta type, isoform beta-I (PRKCB, Homo sapiens, UniProt P05771); baseline: untreated control: 101%

Set 3
Species: mouse
Medium: microsomes or S9
Concentration: 2 µM
Time: 0.5 h
Endpoint: remaining compound
CCOc1cccc(CN(CCO)Cc2ccccc2C(=O)O)c1: 78.7%
CN(Cc1cccnc1)C(=O)c1c(OCC2CC2)cc(=O)n2c1CCCCC2: 5.33%
Cc1ncn(CCS(=O)(=O)c2ccc(C(C)(C)C)cc2)c(=O)c1C: 29.2%
CCc1nn2c(c1-c1ccc(C)c(S(=O)(=O)N(C)c3ccc(C)c(C)c3)c1)NC(=O)CCC2=O: 77.8%
Cc1cc(S(=O)(=O)Nc2c[nH]c(=O)c(C)c2)sc1Cl: 23.1%
CCC(CC)C1CC(NC(=O)Nc2c(C)ccn(C)c2=O)CCO1 (centres unmarked): 46.5%
COc1cc(NC(=O)NC2CCN(c3nc4ccccc4n(CC(C)C)c3=O)CC2)cc(OC)c1: 73.8%
Cc1ccc2ncc(-c3ccc(CN(C)C)cn3)cc2c1: 8.79%
CN(C)C(CN1C(O)=c2ccccc2=NC12C(=O)Nc1ccccc12)c1ccccc1 (centres unmarked): 5.05%
CCCc1c(C)[nH]c2[nH]n(-c3ccccc3)c(=O)c2c1=O: > 99%
CCc1nc(C)c2c(n1)N(CCc1c(C)noc1C)C(=O)CC2: 0.241%
O=C1CC2CS(=O)(=O)CC2N1C1CCCCC1 (centres unmarked): 66.5%
CN1N=C(c2ccc(-n3cncn3)cc2)CC1c1cnn(C)c1 (centres unmarked): 59.1%
COc1cc(=O)[nH]cc1C(=O)NCC(C)N1CCCCC1=O (centres unmarked): 86.9%
Ic1ccc(-n2ccnc2)cc1: 55.2%
Cc1cc(C)c(C)c(S(=O)(=O)N2CCN(CCc3cn(C)nn3)CC2)c1C: 8.63%
CCC(=O)c1ccc(OCCCn2cnc3ccccc32)cc1: 2.9%

Set 4
Target: Non-receptor tyrosine-protein kinase TYK2 (TYK2, Homo sapiens, UniProt P29597)
UniProt P29597, sequence (whole entry, looked up): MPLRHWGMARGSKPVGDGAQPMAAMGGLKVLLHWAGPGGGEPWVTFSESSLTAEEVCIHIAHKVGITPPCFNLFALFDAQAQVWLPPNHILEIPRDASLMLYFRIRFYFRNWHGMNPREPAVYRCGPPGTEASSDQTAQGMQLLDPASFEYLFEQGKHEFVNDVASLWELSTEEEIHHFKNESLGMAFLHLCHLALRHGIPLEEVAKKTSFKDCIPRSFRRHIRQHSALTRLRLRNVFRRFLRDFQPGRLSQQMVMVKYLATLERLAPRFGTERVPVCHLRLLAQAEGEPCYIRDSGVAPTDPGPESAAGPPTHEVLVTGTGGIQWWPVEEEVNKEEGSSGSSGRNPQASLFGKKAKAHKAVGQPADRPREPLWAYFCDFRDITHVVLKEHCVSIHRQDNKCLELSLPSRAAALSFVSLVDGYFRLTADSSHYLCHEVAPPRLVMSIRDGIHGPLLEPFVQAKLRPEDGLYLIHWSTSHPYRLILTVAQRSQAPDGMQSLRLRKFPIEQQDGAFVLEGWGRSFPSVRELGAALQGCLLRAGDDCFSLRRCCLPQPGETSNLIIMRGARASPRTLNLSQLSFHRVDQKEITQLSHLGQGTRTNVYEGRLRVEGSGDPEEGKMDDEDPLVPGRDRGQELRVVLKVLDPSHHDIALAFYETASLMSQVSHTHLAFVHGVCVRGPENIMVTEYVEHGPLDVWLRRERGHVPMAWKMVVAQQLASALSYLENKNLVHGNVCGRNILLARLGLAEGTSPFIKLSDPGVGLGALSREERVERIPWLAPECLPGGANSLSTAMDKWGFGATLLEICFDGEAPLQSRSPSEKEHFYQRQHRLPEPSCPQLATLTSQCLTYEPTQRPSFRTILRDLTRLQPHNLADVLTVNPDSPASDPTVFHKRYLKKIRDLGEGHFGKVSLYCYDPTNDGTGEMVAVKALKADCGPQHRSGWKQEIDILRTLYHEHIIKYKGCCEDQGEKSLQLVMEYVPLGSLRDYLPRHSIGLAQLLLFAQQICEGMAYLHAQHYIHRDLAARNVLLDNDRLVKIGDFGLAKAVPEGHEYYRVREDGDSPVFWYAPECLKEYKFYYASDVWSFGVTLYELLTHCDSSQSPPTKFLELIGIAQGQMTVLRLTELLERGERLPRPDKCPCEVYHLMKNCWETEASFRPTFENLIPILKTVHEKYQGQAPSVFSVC
Observed: enzyme activity
Mode: inhibitor
Concentration: 0.5 µM
Baseline: control
Endpoint: remaining activity
CCc1[nH]c(-c2ccc(OC)cc2)nc1-c1ccncc1: 106%
Cc1ccc(NC2=CC(=O)c3sc(C)nc3C2=O)cc1: 109%
N#CC(=C(N)Sc1ccc(N)cc1)c1ccccc1C(F)(F)F: 102%
COc1ccc(S(=O)(=O)N(CCO)c2ccccc2CN(C)CC=Cc2ccc(Cl)cc2)cc1: 110%
Nc1ncnc2c1cnn2-c1ccccc1: 86.7%
Fc1ccc(-c2nc3n(c2-c2ccncc2)CCS3)cc1: 107%
NC(=O)c1ccc(N(C(N)=O)c2c(F)cccc2F)nc1-c1ccc(F)cc1F: 93.5%
COc1cc(Nc2c(C#N)cnc3cc(OCCCN4CCN(C)CC4)c(OC)cc23)c(Cl)cc1Cl: 98.1%
CCCC(=O)Oc1ccc2[nH]c(C(=O)c3cc4ccccc4[nH]3)cc2c1: 90.7%
CC(=O)c1ccc(N2CCOCC2)cc1O: 110%
Nc1nccc(-c2c(-c3ccc(F)cc3)ncn2C2CCNCC2)n1: 99.8%
Cc1cncc2cccc(S(=O)(=O)N3CCCN(C(=O)CN)C[C@@H]3C)c12: 86.6%
O=C1Cc2c([nH]c3ccc([N+](=O)[O-])cc23)-c2ccccc2N1: 56.5%
Cc1cc(Nc2nc(-c3ccccc3)nc3ccccc23)n[nH]1: 34.3%
Oc1ccc(Nc2nc(-c3ccc(Cl)cc3)cs2)cc1: 110%
CSc1nc(-c2ccnc(N[C@@H](C)c3ccccc3)c2)c(-c2ccc(F)cc2)[nH]1 (racemic): 96.5%
CC#CC(=O)Nc1cc2c(Nc3ccc(F)c(Cl)c3)ncnc2cn1: 106%
O=C1NC(=O)C(c2c[nH]c3ccccc23)=C1c1c[nH]c2ccccc12: 109%
CC[n+]1c(/C=C/N(C)c2ccccc2)n(-c2ccccc2)c2ccc(-c3nc4ccccc4s3)cc21: 88.5%

Repeated from above (set 1):
CN1CCN(c2ccnc(NCCc3ccccc3)n2)CC1: 59.8%
Cc1cc(-n2nc(Cc3cc(F)cc(C(F)(F)F)c3)nc2C)ccc1C(N)=O: 7.99%
COc1cc(C(=O)O)ncc1C#Cc1ccccc1NS(=O)(=O)c1cccc2c(N(C)C)ccnc12: 12.2%
COCCOc1nc(-c2ccc(Cl)nc2)nc2c1CN(C(=O)c1ncn3ccccc13)CC2: -7.27%
CC(C)(C)OC(=O)N1CCCC1CNC1CCC(c2cc(F)ccc2F)(S(=O)(=O)c2ccc(Cl)cc2)CC1 (centres unmarked): 35%
NC(=O)c1ccc2nc(-c3ccc(C4(N)CCC4)cc3)c(-c3ccccc3)n2n1: 9.78%
Cc1nc(C2CCN(C(=O)c3ccc(OC(F)(F)F)cc3N)CC2)c2ncc(N3CCN(C)CC3)cc2n1: -3.74%
O=C(NNS(=O)(=O)c1ccccc1)c1cc(-c2ccnnc2)ccc1F: -0.06%
